Published values gathered from unrelated publications.
Numbered parts are unrelated; each lists some results of a single study. Values joined by “and” are separate records of one study, mostly repeats; a detail may differ.
Chain of UniProt Q6P2M8 (whole entry, looked up): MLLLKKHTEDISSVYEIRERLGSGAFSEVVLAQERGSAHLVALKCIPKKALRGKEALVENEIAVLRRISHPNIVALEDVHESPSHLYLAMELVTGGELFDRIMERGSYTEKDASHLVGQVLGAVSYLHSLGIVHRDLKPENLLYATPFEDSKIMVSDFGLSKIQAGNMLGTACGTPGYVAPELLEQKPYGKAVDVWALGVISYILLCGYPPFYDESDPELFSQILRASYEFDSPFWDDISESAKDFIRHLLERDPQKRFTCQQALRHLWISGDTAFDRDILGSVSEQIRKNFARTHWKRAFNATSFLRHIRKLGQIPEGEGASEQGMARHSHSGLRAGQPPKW
Chain of UniProt O75676 (whole entry, looked up): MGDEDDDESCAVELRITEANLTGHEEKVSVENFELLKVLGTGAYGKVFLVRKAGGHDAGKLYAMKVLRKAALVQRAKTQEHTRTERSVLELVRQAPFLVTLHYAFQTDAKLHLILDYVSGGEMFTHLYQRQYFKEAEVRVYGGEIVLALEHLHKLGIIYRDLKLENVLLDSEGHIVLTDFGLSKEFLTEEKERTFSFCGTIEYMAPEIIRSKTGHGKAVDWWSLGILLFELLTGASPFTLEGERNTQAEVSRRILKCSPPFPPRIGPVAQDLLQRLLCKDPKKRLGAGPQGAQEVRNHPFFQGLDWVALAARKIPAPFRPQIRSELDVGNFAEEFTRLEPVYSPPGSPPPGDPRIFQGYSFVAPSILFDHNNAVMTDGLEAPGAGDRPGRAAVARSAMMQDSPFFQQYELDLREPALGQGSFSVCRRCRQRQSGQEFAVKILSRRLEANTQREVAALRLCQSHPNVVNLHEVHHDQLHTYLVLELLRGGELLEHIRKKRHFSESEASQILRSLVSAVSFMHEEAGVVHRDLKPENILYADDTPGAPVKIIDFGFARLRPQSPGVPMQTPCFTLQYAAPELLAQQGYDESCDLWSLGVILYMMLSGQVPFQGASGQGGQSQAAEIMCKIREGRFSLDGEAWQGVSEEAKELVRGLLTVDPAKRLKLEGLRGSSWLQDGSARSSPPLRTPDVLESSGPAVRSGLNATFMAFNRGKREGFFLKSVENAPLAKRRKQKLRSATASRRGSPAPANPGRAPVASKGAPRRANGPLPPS
Chain of UniProt Q13464 (whole entry, looked up): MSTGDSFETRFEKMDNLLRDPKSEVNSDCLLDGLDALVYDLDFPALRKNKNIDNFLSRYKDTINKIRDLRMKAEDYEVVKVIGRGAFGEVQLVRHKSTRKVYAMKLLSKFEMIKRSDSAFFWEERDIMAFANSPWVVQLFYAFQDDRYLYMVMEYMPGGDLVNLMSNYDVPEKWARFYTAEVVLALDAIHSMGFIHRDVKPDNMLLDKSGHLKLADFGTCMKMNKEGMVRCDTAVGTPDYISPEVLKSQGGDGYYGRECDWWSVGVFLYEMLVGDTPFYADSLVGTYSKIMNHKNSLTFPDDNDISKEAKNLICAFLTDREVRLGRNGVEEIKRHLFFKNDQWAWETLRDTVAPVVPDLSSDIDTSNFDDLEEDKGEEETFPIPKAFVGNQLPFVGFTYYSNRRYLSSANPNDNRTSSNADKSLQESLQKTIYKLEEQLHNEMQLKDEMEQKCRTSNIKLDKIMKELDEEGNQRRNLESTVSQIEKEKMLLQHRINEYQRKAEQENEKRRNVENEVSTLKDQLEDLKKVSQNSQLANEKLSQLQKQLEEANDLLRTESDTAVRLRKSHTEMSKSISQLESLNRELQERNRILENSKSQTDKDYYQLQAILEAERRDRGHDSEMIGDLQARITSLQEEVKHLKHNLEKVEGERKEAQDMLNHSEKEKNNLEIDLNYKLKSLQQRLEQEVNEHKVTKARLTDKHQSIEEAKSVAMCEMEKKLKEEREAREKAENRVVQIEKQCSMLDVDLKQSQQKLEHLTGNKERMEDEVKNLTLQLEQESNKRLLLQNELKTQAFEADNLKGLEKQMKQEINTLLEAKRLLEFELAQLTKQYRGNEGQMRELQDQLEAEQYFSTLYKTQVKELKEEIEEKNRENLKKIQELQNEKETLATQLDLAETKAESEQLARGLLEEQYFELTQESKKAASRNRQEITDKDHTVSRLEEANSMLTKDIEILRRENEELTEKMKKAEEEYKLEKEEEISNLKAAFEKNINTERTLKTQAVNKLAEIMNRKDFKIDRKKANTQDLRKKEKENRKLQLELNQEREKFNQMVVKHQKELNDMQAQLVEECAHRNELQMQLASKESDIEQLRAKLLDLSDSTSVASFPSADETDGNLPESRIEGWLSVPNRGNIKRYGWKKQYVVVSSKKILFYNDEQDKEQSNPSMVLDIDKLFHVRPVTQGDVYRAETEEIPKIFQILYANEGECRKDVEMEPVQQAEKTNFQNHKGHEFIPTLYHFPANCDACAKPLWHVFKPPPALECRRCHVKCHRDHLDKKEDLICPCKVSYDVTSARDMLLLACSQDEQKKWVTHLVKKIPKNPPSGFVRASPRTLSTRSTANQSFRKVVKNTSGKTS
Chain of UniProt P50750 (whole entry, looked up): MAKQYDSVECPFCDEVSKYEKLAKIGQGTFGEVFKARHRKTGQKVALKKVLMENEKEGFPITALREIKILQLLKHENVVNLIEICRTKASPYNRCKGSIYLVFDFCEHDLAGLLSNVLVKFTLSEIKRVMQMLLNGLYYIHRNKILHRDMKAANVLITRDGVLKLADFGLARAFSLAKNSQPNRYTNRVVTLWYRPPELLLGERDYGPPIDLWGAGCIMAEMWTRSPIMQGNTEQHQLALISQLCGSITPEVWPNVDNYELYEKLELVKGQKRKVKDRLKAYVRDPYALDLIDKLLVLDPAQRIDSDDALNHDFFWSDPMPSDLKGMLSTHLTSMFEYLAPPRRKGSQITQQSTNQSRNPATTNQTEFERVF
Chain of UniProt P21802 (whole entry, looked up): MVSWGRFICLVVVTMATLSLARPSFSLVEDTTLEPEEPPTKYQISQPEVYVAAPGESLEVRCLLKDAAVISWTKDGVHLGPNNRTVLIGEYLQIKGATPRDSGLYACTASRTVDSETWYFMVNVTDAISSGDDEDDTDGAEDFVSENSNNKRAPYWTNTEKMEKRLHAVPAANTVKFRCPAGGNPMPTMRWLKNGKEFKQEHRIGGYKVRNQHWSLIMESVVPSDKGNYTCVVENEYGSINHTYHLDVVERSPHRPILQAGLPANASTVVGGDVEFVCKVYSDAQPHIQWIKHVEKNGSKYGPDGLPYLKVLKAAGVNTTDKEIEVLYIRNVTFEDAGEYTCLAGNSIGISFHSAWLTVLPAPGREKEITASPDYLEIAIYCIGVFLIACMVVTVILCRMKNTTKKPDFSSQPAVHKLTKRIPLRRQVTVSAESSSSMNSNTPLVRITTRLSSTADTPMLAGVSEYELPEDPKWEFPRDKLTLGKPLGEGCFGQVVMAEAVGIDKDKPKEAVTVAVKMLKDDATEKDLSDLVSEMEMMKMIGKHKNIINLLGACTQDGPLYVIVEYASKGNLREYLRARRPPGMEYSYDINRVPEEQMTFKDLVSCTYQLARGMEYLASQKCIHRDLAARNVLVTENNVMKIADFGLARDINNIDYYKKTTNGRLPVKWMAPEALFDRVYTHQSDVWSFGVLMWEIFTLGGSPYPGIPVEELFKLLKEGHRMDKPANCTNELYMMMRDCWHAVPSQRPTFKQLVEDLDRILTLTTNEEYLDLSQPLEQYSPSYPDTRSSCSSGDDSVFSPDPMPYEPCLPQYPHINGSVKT
Chain of UniProt Q16832 (whole entry, looked up): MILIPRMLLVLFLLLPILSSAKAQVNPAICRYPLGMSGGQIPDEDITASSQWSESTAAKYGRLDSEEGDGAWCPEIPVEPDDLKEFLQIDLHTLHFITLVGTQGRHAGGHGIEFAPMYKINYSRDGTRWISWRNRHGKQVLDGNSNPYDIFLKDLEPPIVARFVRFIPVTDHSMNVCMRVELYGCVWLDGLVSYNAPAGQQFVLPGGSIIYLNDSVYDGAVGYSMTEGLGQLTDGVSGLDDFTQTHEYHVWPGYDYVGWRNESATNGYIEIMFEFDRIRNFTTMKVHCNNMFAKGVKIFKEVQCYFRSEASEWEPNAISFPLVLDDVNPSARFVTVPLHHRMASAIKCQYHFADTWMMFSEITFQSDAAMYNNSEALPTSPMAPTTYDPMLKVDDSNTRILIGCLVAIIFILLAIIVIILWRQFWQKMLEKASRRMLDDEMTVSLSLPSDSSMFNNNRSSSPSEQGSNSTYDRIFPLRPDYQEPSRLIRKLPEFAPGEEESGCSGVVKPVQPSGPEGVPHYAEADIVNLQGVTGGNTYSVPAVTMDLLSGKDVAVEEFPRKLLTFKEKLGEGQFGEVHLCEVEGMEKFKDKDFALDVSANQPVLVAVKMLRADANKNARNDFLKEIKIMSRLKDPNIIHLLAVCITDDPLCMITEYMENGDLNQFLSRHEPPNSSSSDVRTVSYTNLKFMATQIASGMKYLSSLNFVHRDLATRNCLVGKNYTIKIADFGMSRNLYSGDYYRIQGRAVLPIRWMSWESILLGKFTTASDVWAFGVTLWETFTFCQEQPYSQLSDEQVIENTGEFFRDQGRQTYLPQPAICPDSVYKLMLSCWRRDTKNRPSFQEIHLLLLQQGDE
Chain of UniProt P48730 (whole entry, looked up): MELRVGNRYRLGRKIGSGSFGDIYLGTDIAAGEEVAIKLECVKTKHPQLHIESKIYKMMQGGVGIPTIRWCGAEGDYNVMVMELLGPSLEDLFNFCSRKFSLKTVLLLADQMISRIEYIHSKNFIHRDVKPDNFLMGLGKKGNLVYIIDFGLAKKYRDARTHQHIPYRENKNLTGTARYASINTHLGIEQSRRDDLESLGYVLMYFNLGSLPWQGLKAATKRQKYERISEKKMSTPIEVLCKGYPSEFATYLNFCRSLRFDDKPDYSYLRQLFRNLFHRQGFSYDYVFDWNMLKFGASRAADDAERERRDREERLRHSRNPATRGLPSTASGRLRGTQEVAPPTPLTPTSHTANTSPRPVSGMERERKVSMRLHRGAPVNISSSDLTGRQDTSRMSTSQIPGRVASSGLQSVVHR

Series 1
SMILES: O=C(O)[C@@H]1[C@@H](Cn2nnc3ccccc3c2=O)CC[C@H]1C(=O)c1ccc(OCCC2CCOCC2)cc1
Method: competition with immobilised ligand
Concentration: 1 µM
target | assay | remaining binding [%]
Ribosomal protein S6 kinase alpha-1, N-terminal kinase domain (RPS6KA1, Homo sapiens, UniProt Q15418) | cell-free assay | 100
MARK1 (Homo sapiens, UniProt Q9P0L2) | cell-free assay | 100
CSNK1D (Homo sapiens, UniProt P48730) | cell-free assay | 100
PRKCD (Homo sapiens, UniProt Q05655) | cell-free assay | 100
CDKL3 (Homo sapiens, UniProt Q8IVW4) | binding | 98
FGFR2 (Homo sapiens, UniProt P21802) | cell-free assay | 100

Series 2
Compound: N#CC(C#N)=C(N)/C(C#N)=C/c1ccc(O)cc1
Observed: enzyme activity
Action: inhibitor
Concentration: 0.5 µM
Reference: control
target | remaining activity [%]
RPS6KA4 (Homo sapiens, UniProt O75676) | 99.7
MET (Homo sapiens, UniProt P08581) | 117
PNCK (Homo sapiens, UniProt Q6P2M8) | 97.3
MINK1 (Homo sapiens, UniProt Q8N4C8) | 97.7
PRKG2 (Homo sapiens, UniProt Q13237) | 86.9
ROCK1 (Homo sapiens, UniProt Q13464) | 100
MAPK1 (Homo sapiens, UniProt P28482) | 101
Cyclin-dependent kinase 9, with cyclin K (CDK9, Homo sapiens, UniProt P50750) | 100
KDR (Homo sapiens, UniProt P35968) | 97.2
MAPK14 (Homo sapiens, UniProt Q16539) | 104
DDR2 (Homo sapiens, UniProt Q16832) | 97.6
CDC42BPB (Homo sapiens, UniProt Q9Y5S2) | 109
CAMK4 (Homo sapiens, UniProt Q16566) | 97.2

Series 3
Cell line: HuT78
Concentration: 2 µM
Time: 48 h
Reference: untreated
SMILES | viability [%]
Cn1c(Nc2ccc(C(F)(F)F)cc2)nc2cc(Oc3ccnc(-c4ncc(C(F)(F)F)[nH]4)c3)ccc21 | 117
Cc1cnc(Nc2ccc(OCCN3CCCC3)cc2)nc1Nc1cccc(S(=O)(=O)NC(C)(C)C)c1 | 76.3
CN1CCN(CCOc2cc(OC3CCOCC3)c3c(Nc4c(Cl)ccc5c4OCO5)ncnc3c2)CC1 | 127
Cc1c(NC(=O)OC[C@@H]2COCCN2)cn2ncnc(Nc3ccc4c(cnn4Cc4cccc(F)c4)c3)c12 | 155

Further values, each from its own experiment
Observed: binding
Action: competitor
Method: NanoBRET
Cell line: HEK293
KRAS Q61H: GTPase KRas (KRAS, Homo sapiens, UniProt P01116, Q61H)
Compound | target | setting | normalized BRET
CCC(=O)N1CCN(c2nc(OC[C@@H]3CCCN3C)nc3c2CCN(c2cccc4cccc(Cl)c24)C3)C[C@@H]1CC#N | KRAS Q61H | 137 nM | 83.7% and 98.8% and 88.3%
C=C(F)C(=O)N1CCN(c2nc(OC[C@@H]3CCCN3C)nc3c2CCN(c2cccc4cccc(Cl)c24)C3)C[C@@H]1CC#N | GTPase HRas (HRAS, Homo sapiens, UniProt P01112) | 82.2 nM | 98.7% and 93.4%
CN1CCC[C@H]1COc1nc2c(c(N3CCN(S(C)(=O)=O)[C@@H](CC#N)C3)n1)CCN(c1cccc3cccc(Cl)c13)C2 | KRAS Q61H | 15.2 nM | 91.8% and 101% and 84.9%

Excerpt of the above (series 1):
target | assay | remaining binding [%]
CSNK1D (Homo sapiens, UniProt P48730) | cell-free assay | 100
FGFR2 (Homo sapiens, UniProt P21802) | cell-free assay | 100
MARK1 (Homo sapiens, UniProt Q9P0L2) | cell-free assay | 100
